# Measured values pooled from the literature.
# Compare with care: the assays were run in different laboratories. ± gives the spread as reported.
Structure (SMILES),test,system,setting,how to read,measurement,result
CSCCNC(=O)CCC(C)C1CCC2C3C(O)CC4CC(O)CCC4(C)C3CCC12C (centres unmarked),,"wild type mice, faeces","dose not given, 14 days",reference: vehicle,faecal bile acids,increased
CC[C@H](C)[C@H](NC(=O)[C@H](Cc1c[nH]c2ccccc12)NC(=O)[C@H](CCCNC(=N)N)NC(=O)[C@H](CCCCN)NC(=O)[C@H](CC(C)C)NC(=O)[C@H](CC(=O)O)NC(=O)[C@H](Cc1ccccc1)NC(=O)[C@H](C)NC(=O)[C@H](Cc1ccc(O)cc1)NC(=O)[C@H](CC(N)=O)NC(=O)[C@H](Cc1ccc(O)cc1)NC(=O)[C@H](CCCNC(=N)N)NC(=O)[C@H](Cc1ccc(O)cc1)NC(=O)[C@H](Cc1ccc(O)cc1)NC(=O)[C@@H](NC(=O)[C@H](CC(C)C)NC(=O)[C@H](C)NC(=O)[C@H](CC(N)=O)NC(=O)[C@H](Cc1ccc(O)cc1)NC(C)=O)[C@@H](C)CC)C(=O)N[C@@H](Cc1ccc(O)cc1)C(=O)N[C@@H](CC(C)C)C(N)=O,refers to: HA-02 tetramer,"antigen-experienced tetramer+ CD4 T cells, healthy adults, HLA-DRB1*0101",dose not given,,α4β7− CCR9+ cells,9.09%
COc1cc(C(Oc2ccc(C[C@H](N)C(=O)N[C@H](C)C(=O)NCC(=O)N(C)[C@@H](Cc3ccccc3)C(=O)NCCO)cc2)C(=O)O)c([N+](=O)[O-])cc1OC (some centres unmarked),,mouse,"intra-VTA infusion, 0.5 µL, 200 µM, with: 375 nm light uncaging",,duration of velocity increase,> 25 min
CC[C@H](C)[C@H](NC(=O)[C@H](CCCNC(=N)N)NC(=O)[C@H](CCC(N)=O)NC(=O)[C@H](CC(=O)O)NC(=O)[C@H](CC(C)C)NC(=O)[C@H](CC(C)C)NC(=O)[C@H](CC(N)=O)NC(=O)[C@H](Cc1ccccc1)NC(=O)[C@H](CC(=O)O)NC(=O)[C@@H](NC(=O)[C@@H](NC(=O)[C@H](CC(N)=O)NC(=O)CNC(=O)[C@H](CO)NC(C)=O)C(C)C)[C@@H](C)CC)C(=O)N[C@H](C(=O)N[C@@H](Cc1c[nH]c2ccccc12)C(=O)N[C@@H](CCC(N)=O)C(=O)N[C@@H](CC(N)=O)C(=O)N[C@@H](Cc1c[nH]c2ccccc12)C(=O)N[C@@H](Cc1ccc(O)cc1)C(=O)N[C@@H](C)C(N)=O)[C@@H](C)CC,refers to: HA-52 tetramer,"antigen-experienced tetramer+ CD4 T cells, healthy adults, HLA-DRB1*0101",dose not given,,α4β7− CCR9+ cells,5.56%
CC[C@H](C)[C@H](NC(=O)[C@H](C)NC(=O)CNC(=O)[C@@H](N)CCSC)C(=O)N[C@@H](C)C(=O)N[C@@H](CCCCN)C(=O)N[C@@H](CC(C)C)C(=O)N[C@H](C(=O)N[C@@H](C)C(=O)N[C@@H](CCCCN)C(=O)N[C@@H](Cc1ccccc1)C(=O)NCC(=O)N[C@@H](Cc1c[nH]c2ccccc12)C(=O)N1CCC[C@H]1C(=O)N[C@@H](Cc1ccccc1)C(=O)N[C@H](C(=O)N[C@@H](CCCCN)C(=O)N[C@@H](CCCCN)C(=O)N[C@@H](Cc1ccccc1)C(=O)N[C@@H](Cc1ccc(O)cc1)C(=O)N[C@@H](CCCCN)C(=O)N[C@@H](CCC(N)=O)C(=O)N[C@H](C(=O)N[C@@H](CCSC)C(=O)N[C@@H](CCC(N)=O)C(=O)N[C@@H](Cc1ccccc1)C(=O)N[C@H](C(=O)NCC(=O)N[C@@H](CCC(N)=O)C(=O)NCC(=O)N[C@@H](Cc1c[nH]c2ccccc12)C(=O)N[C@H](C(=O)N[C@H](C(=O)N[C@@H](CC(=O)O)C(=O)N[C@@H](CCC(N)=O)C(=O)N[C@H](C(=O)N[C@@H](CCC(=O)O)C(=O)N[C@@H](CCCCN)C(=O)N[C@@H](Cc1c[nH]c2ccccc12)C(=O)N[C@@H](CCCNC(=N)N)C(=O)N[C@@H](CCCCN)C(=O)N[C@@H](CCCNC(=N)N)C(=O)N[C@@H](Cc1c[nH]cn1)C(=O)O)[C@@H](C)CC)[C@@H](C)CC)[C@@H](C)O)[C@@H](C)CC)[C@@H](C)CC)[C@@H](C)CC)C(C)C,,PG/PE 1:1 liposomes,MIC,reference: Triton X-100,calcein release,25.6 ± 1.4%
CCOP(=O)(OCC)OCCCCOC(=O)CC1=C(C)/C(=C/c2ccc([S+](C)[O-])cc2)c2ccc(F)cc21 (centres unmarked),,"rat, Freund's adjuvant arthritis, hind legs","oral, 50 mg/kg once daily, prevention protocol","reference: control, direction not given",clinical score reduction,40%
CC(C)C[C@@H]1NC(=O)[C@H](C(C)C)NC(=O)[C@H](CO)NC(=O)CNC(=O)CNC(=O)[C@H](CCCNC(=N)N)NC(=O)[C@@H]2CCCN2C(=O)[C@@H](NC(=O)CC[C@H](NC(=O)c2ccc(N(C)Cc3cnc4nc(N)nc(N)c4n3)cc2)C(=O)O)C(C)(C)SSC[C@@H](C(=O)O)NC(=O)CNC(=O)[C@H]([C@@H](C)O)NC(=O)[C@H](C(C)C)NC1=O,,rat adjuvant arthritis,"iv, 0.2 mg/kg once daily, day 14",,spleen weight,0.482 ± 0.0248 g
C[C@@H](O)[C@H](NC(=O)[C@@H]1CSSC[C@H](NC(=O)[C@@H](Cc2ccccc2)NC(=O)CN2CCN(CC(N)=O)CCN(CC(N)=O)CCN(CC(N)=O)CC2)C(=O)N[C@@H](Cc2ccc(O)cc2)C(=O)N[C@H](Cc2c[nH]c3ccccc23)C(=O)N[C@@H](CCCCN)C(=O)N[C@@H]([C@@H](C)O)C(=O)N1)C(=O)O [lead-212 labelled],,"AR-42J tumour, mice","3 x 10 µCi, two-week intervals",,median survival,11.9 weeks
CCCCc1ccc(S(=O)(=O)N2CC2C(=O)OC)cc1 (centres unmarked),"arterial thrombus formation, electrical stimulation","rat, carotid artery thrombosis model",,,effective dose,0.05 µmol/kg
COC[C@@H](NC(C)=O)C(=O)NCc1ccc(OCc2cccc(F)c2)cc1,"formalin test, phase I",mouse,"ip, 9.0 mg/kg",reference: vehicle,licking time,39%
CC[C@H](C)[C@H](NC(=O)[C@@H](NC(=O)[C@H](CC(=O)O)NC(C)=O)[C@@H](C)O)C(=O)N[C@@H](CCCNC(=N)N)C(=O)N[C@@H](CC(C)C)C(=O)N[C@@H](CC(C)C)C(=O)N[C@@H](Cc1ccccc1)C(=O)N[C@@H](CCC(N)=O)C(=O)N[C@@H](CC(C)C)C(=O)N[C@@H](CCSC)C(=O)N[C@@H](CCCNC(=N)N)C(=O)N1CCC[C@H]1C(=O)N1CCC[C@H]1C(=O)N[C@@H](CC(N)=O)C(=O)N[C@@H](CCSC)C(=O)N[C@H](C(=O)N1CCC[C@H]1C(=O)N[C@@H](C)C(=O)N[C@H](C(=O)N[C@@H](CC(N)=O)C(=O)N[C@@H](C)C(N)=O)C(C)C)[C@@H](C)O,refers to: HA-15 tetramer,"antigen-experienced tetramer+ CD4 T cells, healthy adults, HLA-DRB1*0101",dose not given,,α4β7+ CCR9− cells,63.6%
Cc1ccc(/C=C/C(=O)O)cc1-c1cc2c(cc1C)C(C)(C)CCC2(C)C,"RNA sequencing, refers to: Mta2","rat, brain","dose not given, 24 h",reference: vehicle,log2 fold change,-0.1
COC[C@@H](NC(C)=O)C(=O)NCc1ccc(OCc2ccccc2)cc1,"formalin test, phase I",mouse,"ip, 5.8 mg/kg",reference: vehicle,licking time,77%
Cc1cc(O)cc(C)c1CC(N)C(=O)NC1CCNc2c(C(=O)NCc3ccccc3)cc(Cc3ccccc3)cc21 (centres unmarked),warm water tail withdrawal,male C57BL/6 mice,"intraperitoneal, 10 mg/kg",,antinociception,inactive

# Repeated from above:
Structure (SMILES),test,system,setting,how to read,measurement,result
CC[C@H](C)[C@H](NC(=O)[C@H](Cc1c[nH]c2ccccc12)NC(=O)[C@H](CCCNC(=N)N)NC(=O)[C@H](CCCCN)NC(=O)[C@H](CC(C)C)NC(=O)[C@H](CC(=O)O)NC(=O)[C@H](Cc1ccccc1)NC(=O)[C@H](C)NC(=O)[C@H](Cc1ccc(O)cc1)NC(=O)[C@H](CC(N)=O)NC(=O)[C@H](Cc1ccc(O)cc1)NC(=O)[C@H](CCCNC(=N)N)NC(=O)[C@H](Cc1ccc(O)cc1)NC(=O)[C@H](Cc1ccc(O)cc1)NC(=O)[C@@H](NC(=O)[C@H](CC(C)C)NC(=O)[C@H](C)NC(=O)[C@H](CC(N)=O)NC(=O)[C@H](Cc1ccc(O)cc1)NC(C)=O)[C@@H](C)CC)C(=O)N[C@@H](Cc1ccc(O)cc1)C(=O)N[C@@H](CC(C)C)C(N)=O,refers to: HA-02 tetramer,"antigen-experienced tetramer+ CD4 T cells, healthy adults, HLA-DRB1*0101",dose not given,,α4β7− CCR9+ cells,9.09%
COc1cc(C(Oc2ccc(C[C@H](N)C(=O)N[C@H](C)C(=O)NCC(=O)N(C)[C@@H](Cc3ccccc3)C(=O)NCCO)cc2)C(=O)O)c([N+](=O)[O-])cc1OC (some centres unmarked),,mouse,"intra-VTA infusion, 0.5 µL, 200 µM, with: 375 nm light uncaging",,duration of velocity increase,> 25 min
